Experimental data from different studies.
Compare with care: the assays were run in different laboratories. ± gives the spread as reported.
Neuronal acetylcholine receptor; alpha3/beta4: Neuronal acetylcholine receptor; alpha3/beta4 (Rattus norvegicus, UniProt P04757+P12392)
Sequence of UniProt P04757 (whole entry, looked up): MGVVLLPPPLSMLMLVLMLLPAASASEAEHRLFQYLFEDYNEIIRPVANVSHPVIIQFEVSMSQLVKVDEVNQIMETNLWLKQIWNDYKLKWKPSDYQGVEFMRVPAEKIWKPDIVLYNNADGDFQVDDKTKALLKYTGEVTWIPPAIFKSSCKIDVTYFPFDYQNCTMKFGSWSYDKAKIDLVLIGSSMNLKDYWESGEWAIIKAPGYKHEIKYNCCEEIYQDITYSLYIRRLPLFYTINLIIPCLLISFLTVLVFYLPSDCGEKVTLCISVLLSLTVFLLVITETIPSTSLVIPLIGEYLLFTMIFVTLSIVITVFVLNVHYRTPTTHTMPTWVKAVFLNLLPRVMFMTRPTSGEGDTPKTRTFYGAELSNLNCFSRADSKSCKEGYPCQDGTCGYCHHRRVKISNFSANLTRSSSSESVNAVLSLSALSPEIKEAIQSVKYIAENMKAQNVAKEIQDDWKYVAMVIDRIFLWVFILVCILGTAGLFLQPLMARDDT
Sequence of UniProt P12392 (whole entry, looked up): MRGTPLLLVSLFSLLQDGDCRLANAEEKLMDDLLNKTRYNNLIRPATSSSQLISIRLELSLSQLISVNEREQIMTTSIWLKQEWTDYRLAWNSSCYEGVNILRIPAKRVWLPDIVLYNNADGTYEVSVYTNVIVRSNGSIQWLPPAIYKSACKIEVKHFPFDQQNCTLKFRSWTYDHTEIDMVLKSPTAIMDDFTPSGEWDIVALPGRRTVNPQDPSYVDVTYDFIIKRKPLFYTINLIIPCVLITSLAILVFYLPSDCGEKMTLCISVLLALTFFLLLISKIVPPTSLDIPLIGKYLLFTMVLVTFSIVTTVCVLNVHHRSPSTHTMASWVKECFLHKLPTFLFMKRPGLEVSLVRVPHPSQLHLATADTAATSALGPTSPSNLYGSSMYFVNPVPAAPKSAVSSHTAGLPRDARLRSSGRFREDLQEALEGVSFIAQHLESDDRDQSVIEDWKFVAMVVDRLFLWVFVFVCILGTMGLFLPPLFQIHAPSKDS
Sequence of UniProt P12389 (whole entry, looked up): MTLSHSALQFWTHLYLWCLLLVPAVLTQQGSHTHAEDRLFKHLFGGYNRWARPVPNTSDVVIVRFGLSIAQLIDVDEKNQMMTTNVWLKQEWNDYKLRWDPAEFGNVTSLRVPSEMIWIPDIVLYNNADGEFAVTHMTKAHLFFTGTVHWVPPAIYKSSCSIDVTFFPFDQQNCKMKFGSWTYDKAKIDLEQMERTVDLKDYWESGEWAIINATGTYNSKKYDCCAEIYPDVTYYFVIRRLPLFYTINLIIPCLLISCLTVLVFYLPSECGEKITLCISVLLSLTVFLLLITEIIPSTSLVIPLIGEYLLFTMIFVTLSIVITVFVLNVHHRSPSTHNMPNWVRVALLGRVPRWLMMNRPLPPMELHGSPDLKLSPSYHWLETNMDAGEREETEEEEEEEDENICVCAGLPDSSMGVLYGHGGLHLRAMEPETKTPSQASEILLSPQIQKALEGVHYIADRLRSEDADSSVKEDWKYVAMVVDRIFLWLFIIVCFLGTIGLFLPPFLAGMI
Sequence of UniProt Q05941 (whole entry, looked up): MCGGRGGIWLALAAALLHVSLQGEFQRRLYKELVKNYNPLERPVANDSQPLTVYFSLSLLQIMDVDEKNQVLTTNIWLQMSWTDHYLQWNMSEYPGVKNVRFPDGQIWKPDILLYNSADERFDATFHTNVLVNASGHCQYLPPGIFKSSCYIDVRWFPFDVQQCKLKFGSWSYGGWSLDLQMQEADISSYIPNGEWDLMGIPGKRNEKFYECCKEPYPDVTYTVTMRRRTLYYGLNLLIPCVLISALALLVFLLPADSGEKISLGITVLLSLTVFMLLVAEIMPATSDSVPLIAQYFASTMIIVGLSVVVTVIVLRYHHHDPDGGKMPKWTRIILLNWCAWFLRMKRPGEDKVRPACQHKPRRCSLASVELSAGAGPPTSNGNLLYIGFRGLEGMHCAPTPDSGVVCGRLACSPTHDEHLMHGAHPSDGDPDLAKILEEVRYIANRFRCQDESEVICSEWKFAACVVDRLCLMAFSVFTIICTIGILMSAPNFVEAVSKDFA
Sequence of UniProt P36544 (whole entry, looked up): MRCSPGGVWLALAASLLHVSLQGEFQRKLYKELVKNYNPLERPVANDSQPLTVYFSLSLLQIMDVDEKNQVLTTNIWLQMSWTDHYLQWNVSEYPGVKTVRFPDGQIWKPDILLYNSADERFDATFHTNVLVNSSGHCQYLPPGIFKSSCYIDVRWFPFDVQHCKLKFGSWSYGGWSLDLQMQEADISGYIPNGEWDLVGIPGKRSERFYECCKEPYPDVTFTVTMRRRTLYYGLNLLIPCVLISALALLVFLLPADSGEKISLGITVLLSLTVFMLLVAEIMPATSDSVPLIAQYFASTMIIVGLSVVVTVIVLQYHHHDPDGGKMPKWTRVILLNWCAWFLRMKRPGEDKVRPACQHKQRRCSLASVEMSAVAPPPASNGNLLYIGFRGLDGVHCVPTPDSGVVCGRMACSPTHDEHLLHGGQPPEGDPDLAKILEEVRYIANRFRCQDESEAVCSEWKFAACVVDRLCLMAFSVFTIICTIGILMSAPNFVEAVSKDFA

C[C@H](NC(=O)c1cccc2nc(-c3cncc4ccccc34)n(CCCC(=O)NCCOCCNC(=O)c3ccc(C4=c5cc6c(cc5Oc5cc7c(cc54)C(CS(=O)(=O)O)=CC(C)(C)N7C)=[N+](C)C(C)(C)C=C6CS(=O)(=O)[O-])c(C(=O)O)c3)c12)c1ccc2ccccc2c1 — Kd (Spike glycoprotein, receptor-binding domain (Severe acute respiratory syndrome coronavirus 2, UniProt P0DTC2); binding): > 1500 nM
CC1(C)SSC[C@@H](C(N)=O)NC(=O)[C@H](Cc2c[nH]c3ccccc23)NC(=O)[C@H](CCCNC(=N)N)NC(=O)[C@H](CCCNC(=N)N)NC(=O)[C@H](Cc2c[nH]c3ccccc23)NC(=O)[C@H](Cc2c[nH]c3ccccc23)NC(=O)[C@H](CCCNC(=N)N)NC(=O)[C@H]1NC(=O)CN — IC50 (Neuronal acetylcholine receptor subunit alpha-7 (CHRNA7, Homo sapiens, UniProt P36544); human cells): 1370 ± 72.8 nM
O=C(N/N=C/c1cc(Br)cc(Br)c1O)c1cccnc1 — Kd (tpx (Yersinia pseudotuberculosis, UniProt Q66A71)): 51000 nM
CCC[C@@H]1NC(=O)[C@H](CC)NC(=O)[C@H](Cc2ccccc2)NC(=O)[C@@H]2CSSC[C@H](NC(=O)CN)C(=O)N[C@@H](CSSC[C@@H](C(N)=O)NC(=O)[C@H](Cc3ccc(O)cc3)NC1=O)C(=O)N[C@@H](CO)C(=O)N[C@@H](Cc1c[nH]cn1)C(=O)N1CCC[C@H]1C(=O)N1CCC[C@H]1C(=O)N2 — inhibition (Neuronal acetylcholine receptor subunit alpha-7 (Chrna7, Rattus norvegicus, UniProt Q05941); cells; 10 µM): 49.8 ± 3.2%
CC[C@H](C)[C@@H]1NC(=O)[C@@H]2CCCN2C(=O)[C@H](C)NC(=O)[C@H](CCSC)NC(=O)[C@H](C)NC(=O)[C@H](CO)NC(=O)[C@@H]2CSSC[C@H](NC(=O)CN)C(=O)N[C@@H](CSSC[C@@H](C(N)=O)NC1=O)C(=O)N[C@@H](CO)C(=O)N[C@@H](Cc1c[nH]cn1)C(=O)N1CCC[C@H]1C(=O)N[C@@H](C(C)C)C(=O)N2 — Hill slope (Neuronal acetylcholine receptor; alpha3/beta4; receptor current, antagonist; rat): 1.12
CC[C@H](C)[C@@H]1NC(=O)[C@H](CC(=O)O)NC(=O)[C@@H]2CCCN2C(=O)[C@H](CC(N)=O)NC(=O)[C@H](CCC(N)=O)NC(=O)[C@H](CC(C)C)NC(=O)[C@H]([C@@H](C)CC)NC(=O)[C@@H]2CSSC[C@H](NC(=O)[C@@H](N)CC(=O)O)C(=O)N[C@@H](CSSC[C@@H](C(N)=O)NC1=O)C(=O)N[C@@H](CO)C(=O)N[C@@H](C)C(=O)N1CCC[C@H]1C(=O)N1CCC[C@H]1C(=O)N2 — IC50 (Neuronal acetylcholine receptor; alpha2/beta4 (Rattus norvegicus, UniProt P12389+P12392); rat cells): > 10000 nM
CCC[C@@H]1NC(=O)[C@H](CC)NC(=O)[C@H](Cc2ccccc2)NC(=O)[C@@H]2CSSC[C@H](NC(=O)CN)C(=O)N[C@@H](CSSC[C@@H](C(N)=O)NC(=O)[C@H](Cc3ccc(O)cc3)NC1=O)C(=O)N[C@@H](CO)C(=O)N[C@@H](Cc1c[nH]cn1)C(=O)N1CCC[C@H]1C(=O)N[C@@H](CC)C(=O)N2 — Ki (Neuronal acetylcholine receptor; alpha3/beta4): 270 ± 11 nM
CC[C@H](C)[C@@H]1NC(=O)[C@@H]2CCCN2C(=O)[C@H](CO)NC(=O)[C@H](CCSC)NC(=O)[C@H](C)NC(=O)[C@H](CO)NC(=O)[C@@H]2CSSC[C@H](NC(=O)CN)C(=O)N[C@@H](CSSC[C@@H](C(N)=O)NC1=O)C(=O)N[C@@H](C)C(=O)N[C@@H](Cc1c[nH]cn1)C(=O)N1CCC[C@H]1C(=O)N[C@@H](C(C)C)C(=O)N2 — Hill slope (Neuronal acetylcholine receptor; alpha3/beta4; receptor current, antagonist; rat): 1.16

Excerpt of the above:
CC[C@H](C)[C@@H]1NC(=O)[C@@H]2CCCN2C(=O)[C@H](C)NC(=O)[C@H](CCSC)NC(=O)[C@H](C)NC(=O)[C@H](CO)NC(=O)[C@@H]2CSSC[C@H](NC(=O)CN)C(=O)N[C@@H](CSSC[C@@H](C(N)=O)NC1=O)C(=O)N[C@@H](CO)C(=O)N[C@@H](Cc1c[nH]cn1)C(=O)N1CCC[C@H]1C(=O)N[C@@H](C(C)C)C(=O)N2 — Hill slope (Neuronal acetylcholine receptor; alpha3/beta4; receptor current, antagonist; rat): 1.12
